Results from different studies.
Compare with care: the assays were run in different laboratories.
Organism: herpes simplex virus 1

Structure (SMILES)	assay	test system	conditions	how to read	measurement	value
CCOC(=O)[C@@H](C)NP(=O)(CO[C@H](CF)Cn1cnc(N)nc1=O)N[C@H](C)C(=O)OCC	cytopathic effect	HEL, KOS, TK+			EC50	> 100 µM
CC(=O)OC[C@H]1O[C@@H](Sc2sc(C(=O)c3ccc(C)cc3)c(N)c2-c2nc3ccccc3s2)[C@H](OC(C)=O)[C@@H](OC(C)=O)[C@H]1OC(C)=O			nontoxic concentration, mean over three virus titres		plaque reduction	80%
CCOC(=O)[C@@H](C)NP(=O)(CO[C@H](CF)CN1CNC(N)=NC1=O)N[C@H](C)C(=O)OCC	cytopathic effect	HEL, KOS, TK+			EC50	> 100 µM
CC(C)OC(=O)[C@H](Cc1ccccc1)NP(=O)(COCCn1cnc2c(=O)[nH]c(=O)[nH]c21)N[C@@H](Cc1ccccc1)C(=O)OC(C)C	cytopathic effect	HEL, KOS			EC50	> 100 µM
Cc1ccc(O)c(C=NNC(=N)NO)n1	viral replication	Vero, McKrae	100 µM		plaque reduction	100%
COC(=O)c1cc(O)c(=O)c(O)cc1C	viral replication		1 µM		antiviral activity	inactive
N[C@H]1C[C@@H]1c1ccc(-c2cccc(O)c2)cc1	qRT-PCR, measured: ICP27 and ICP4 mRNA	HeLa	50 µM, 5 h pretreatment, infection 2 h		IE gene expression	inhibited
Cc1cc(O)c(O)c(=O)c(O)c1	viral replication		5 µM		inhibition	inhibited
Cc1ccc(S(=O)(=O)Nn2c3c(cc(-c4nc5ccccc5s4)c2=O)CCCC3)cc1	plaque	Vero	non-toxic concentration, mean of three viral titres		viral titre reduction	40%
N=C(NO)NN=Cc1ccc2ccccc2n1	plaque reduction	Vero, McKrae		relative to: TC50 over IC50	selectivity index	3.4

Repeated from above:
Structure (SMILES)	assay	test system	conditions	how to read	measurement	value
Cc1ccc(O)c(C=NNC(=N)NO)n1	viral replication	Vero, McKrae	100 µM		plaque reduction	100%
